Experimental data collected from several papers.
Compare with care: the assays were run in different laboratories. Numbers after ± are the reported error.
Sequence of UniProt Q15759 (whole entry, looked up): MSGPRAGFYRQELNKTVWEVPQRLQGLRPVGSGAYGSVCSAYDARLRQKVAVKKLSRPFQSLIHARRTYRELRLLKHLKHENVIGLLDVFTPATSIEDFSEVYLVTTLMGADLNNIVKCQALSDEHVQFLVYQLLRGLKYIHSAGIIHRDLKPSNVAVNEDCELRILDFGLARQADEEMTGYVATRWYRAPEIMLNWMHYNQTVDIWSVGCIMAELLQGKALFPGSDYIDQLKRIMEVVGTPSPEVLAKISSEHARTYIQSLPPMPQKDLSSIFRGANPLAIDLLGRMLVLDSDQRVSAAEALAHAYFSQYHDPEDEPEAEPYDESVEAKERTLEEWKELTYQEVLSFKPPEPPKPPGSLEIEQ

Compound = O=C1Nc2cc3[nH]nc(-c4ccncc4)c3cc2CN1Cc1ccccc1; assay = CTCAE v4.03; system = advanced solid tumour patients; conditions = intravenous, 7.2 mg/kg; endpoint = patients with infusion reaction; value = 33%
Compound = CC[C@H]1[C@@H](O)[C@@H]2[C@H](CC[C@]3(C)[C@@H]([C@H](C)CCNC(=O)NS(=O)(=O)c4ccc(C(C)(C)C)cc4)CC[C@@H]23)[C@@]2(C)CC[C@@H](O)C[C@@H]12; system = human; conditions = dose not given, related to compound and quinidine; endpoint = subjects with QT prolongation; value = 8.3%
Compound = C[C@@H]1OC(=O)NN=C1c1ccc(-c2ccc(F)cc2)c(C(F)(F)F)c1; assay = phase I trial, measured: Diarrhoea worst grade 1; system = human patients; conditions = 5 mg loading then 0.25 mg daily; endpoint = patients with adverse event; value = 0%
Compound = O=C(Nc1ccccc1)C1CCN(C(=O)Oc2cccnc2)CC1; system = healthy women; conditions = oral, 100 mg, 9 days; endpoint = back pain adverse events; value = 0%
Compound = CCCC1CCC(C2CCC(c3ccc(F)c(F)c3)CC2)CC1 (centres unmarked); assay = measured: compound; system = human pregnant women, female fetuses, maternal serum; conditions = dose not given, paired maternal-cord samples, mean; endpoint = concentration; value = 0.81 ng/mL
Compound = CC[C@H](C)[C@H](NC(=O)[C@H](Cc1ccccc1)NC(=O)[C@H](CCC(=O)O)NC(=O)[C@H](CCCNC(=N)N)NC(=O)[C@H](C)NC(=O)[C@H](C)NC(=O)[C@H](CCC(N)=O)NC(=O)[C@H](CCC(=O)O)NC(=O)[C@H](CCC(=O)O)NC(=O)[C@H](CC(C)C)NC(=O)[C@H](Cc1ccc(O)cc1)NC(=O)[C@H](CO)NC(=O)[C@H](CO)NC(=O)[C@@H](NC(=O)[C@H](CC(=O)O)NC(=O)[C@H](CO)NC(=O)[C@@H](NC(=O)[C@H](Cc1ccccc1)NC(=O)[C@@H](NC(=O)CNC(=O)[C@H](CCC(=O)O)NC(=O)[C@H](C)NC(=O)CCc1cnc[nH]1)[C@@H](C)O)[C@@H](C)O)C(C)C)C(=O)N[C@@H](C)C(=O)N[C@@H](Cc1c[nH]c2ccccc12)C(=O)N[C@@H](CC(C)C)C(=O)N[C@H](C(=O)N[C@@H](CCCNC(=N)N)C(=O)NCC(=O)N[C@@H](CCCNC(=N)N)C(=O)N[C@@H](CCCCNC(=O)COCCOCCNC(=O)COCCOCCNC(=O)CC[C@H](NC(=O)CCCCCCCCCCCCCCCCC(=O)O)C(=O)O)C(=O)NCC(=O)NCC(=O)N[C@@H](CO)C(=O)N[C@@H](CCSC)C(=O)N[C@H](C(=O)N[C@@H](CCCCNc1c(NCCCCCN(O)C(=O)CCC(=O)NCCCCCN(O)C(=O)CCC(=O)NCCCCCN(O)C(C)=O)c(=O)c1=O)C(=O)O)C(C)C)C(C)C [zirconium-89 labelled]; assay = ex vivo gamma counting; system = male Sprague-Dawley rats, kidney; conditions = intravenous, 1 nmol, 72 h, mean of 3 animals; endpoint = tissue uptake; value = 4.5 ± 0.4 %ID/g
Compound = COc1ncccc1-c1cnn2ccc(N3CCN(C(=O)OC(C)C)CC3)nc12; system = rat, rotarod test, plasma; conditions = 30 mg/kg, 180 min; endpoint = drug concentration; value = 3.2 µM
Compound = NCC(=O)NCCC(c1ccccc1)c1ccccc1; tested on = Plasmodium falciparum; system = GB4; endpoint = IC50; value = 1.58 µM
Compound = CC(C)[C@@H]1NC(=O)CNC(=O)[C@H](CC(N)=O)NC(=O)[C@H](CCCNC(=N)N)NC(=O)[C@H](Cc2ccc(O)cc2)NC(=O)[C@H](C(C)C)NC(=O)[C@@H](NC(=O)[C@@H](NC(=O)[C@H](CC(N)=O)NC(=O)[C@H](Cc2c[nH]c3ccccc23)NC(=O)[C@H](C)NC(=O)[C@H](Cc2ccccc2)NC(=O)CN)C(C)C)CSSC[C@@H](C(=O)N[C@@H](Cc2cnc[nH]2)C(=O)N[C@@H](CCCNC(=N)N)C(=O)N[C@@H](CCCNC(=N)N)C(=O)N[C@@H](C)C(=O)N[C@@H](CC(N)=O)C(N)=O)NC(=O)[C@H](C(C)C)NC(=O)[C@H](CCCNC(=N)N)NC1=O; system = ICR mice, blood; conditions = intraperitoneal, 5 mg/kg, day 5; endpoint = eosinophils; value = 2.15 ± 0.11%
Compound = COc1cccc(-c2n[nH]c(SCc3ccccn3)n2)c1OC; tested on = Salmonella typhimurium; assay = Ames test, plate incorporation; system = TA100; conditions = 0.063 mg/plate, without S9; endpoint = revertant colonies per plate; value = 101
Compound = COc1cccc2c1CCCC2CCCN1CCN(C2CCCCC2)CC1 (centres unmarked); system = CD-1 mouse, male, plasma; conditions = intraperitoneal, 10 mg/kg; endpoint = elimination rate constant; value = 2.68e-05 s⁻¹
Compound = CC(C)C[C@@H]1NC(=O)[C@H](CCCCN)NC(=O)[C@H](CC(N)=O)NC(=O)[C@H](CCCNC(=N)N)NC(=O)[C@H]([C@@H](C)O)NC(=O)[C@@H]2CSSC[C@@H]3NC(=O)[C@H]([C@@H](C)O)NC(=O)CNC(=O)CNC(=O)[C@H](C(C)C)NC(=O)[C@@H]4CSSC[C@H](NC(=O)[C@H]([C@@H](C)O)NC(=O)[C@H](CSSC[C@H](NC(=O)[C@H](C(C)C)NC(=O)[C@@H]5CCCN5C1=O)C(=O)NCC(=O)N[C@@H](CCC(=O)O)C(=O)N[C@@H]([C@@H](C)O)C(=O)N4)NC(=O)CNC(=O)[C@@H]1CCCN1C(=O)[C@H]([C@@H](C)O)NC(=O)[C@H](CC(N)=O)NC3=O)C(=O)N[C@@H](CO)C(=O)N[C@@H](Cc1c[nH]c3ccccc13)C(=O)N1CCC[C@H]1C(=O)N[C@@H](C(C)C)C(=O)N2; assay = HPLC; system = ammonium bicarbonate; conditions = 180 µM, 14 days, pH 9.0, 25 °C, deamidation stability; endpoint = remaining peptide; value = 97.3 ± 1.1%
Compound = O=S(=O)(Nc1ccccc1)c1ccc(NC(=S)Nc2ccccc2)cc1; assay = measured: AST; system = male mouse, blood; conditions = oral, 20 mg/kg daily, 14 days; endpoint = serum enzyme activity; value = 296 U/L
Compound = c1cc2ccc3cccc4ccc(c1)c2c34; system = developing zebrafish, liver; endpoint = hepatic clearance; value = 521 mL/min/kg
Compound = c1ccc2c(c1)ccc1c3ccccc3ccc21; system = fresh water; conditions = 12 (unit not given), 20 °C, SSP sampler, 100 µm; endpoint = log K(PDMS-water); value = 4.73 ± 0.01
Compound = C[C@H]1CN(c2n[nH]c3nc(N[C@H]4CC[C@H](NS(=O)(=O)CCC(F)(F)F)CC4)ncc23)CCO1; tested on = MAPK11 (Homo sapiens, UniProt Q15759); assay = competitor, Kinobeads competition; system = HEK293, K562, placenta extract; conditions = 4 µM; how to read = baseline: vehicle; endpoint = relative abundance; value = 0.3
Compound = c1ccc2c(c1)-c1ccc3ccc4cccc5cc-2c1c3c45; system = polyethylene-water partitioning; conditions = PAH compilation; how to read = baseline: maximum over minimum K; endpoint = literature range factor; value = 66
Compound = NC(=O)[C@H]1CCN(c2ncnc(N)c2F)C[C@@H]1N1CCC[C@@H](Nc2cc(Cl)cc(C(F)(F)F)c2)C1=O; system = B-cell malignancy patients; conditions = oral, 328 mg twice daily, dose; endpoint = grade ≥3 leukocytosis; value = 0%
Compound = CC[C@H](C)[C@H](NC(=O)[C@H](CCCNC(=N)N)NC(=O)[C@H](CCC(=O)O)NC(C)=O)C(=O)N[C@H]1CSSC[C@@H](C(=O)N[C@H](C(N)=O)[C@@H](C)O)NC(=O)[C@H](CCCNC(=N)N)NC(=O)[C@H](Cc2c[nH]cn2)NC(=O)[C@H](C)NC(=O)CNC(=O)[C@H](Cc2c[nH]c3ccccc23)NC(=O)[C@H](CC(=O)O)NC(=O)[C@H](CCC(N)=O)NC(=O)[C@H](Cc2c[nH]c3ccccc23)NC(=O)[C@H](C(C)C)NC1=O; assay = isocratic RP-HPLC; system = C18 column; conditions = pH 7.4, 25 °C, elution method 2; how to read = higher = more lipophilic; endpoint = log retention factor; value = -0.499
Compound = Clc1ccc(Cl)c(-c2ccccc2Cl)c1; system = fresh water; conditions = 20 °C, S100 sampler, 100 µm; endpoint = log K(PDMS-water); value = 4.98 ± 0.04
Compound = CN(C)CCCN1c2ccccc2Sc2ccccc21; tested on = Plasmodium falciparum; system = Dd2; endpoint = IC50; value = 1.58 µM
Compound = COc1ccc2nc3cc(Cl)ccc3c(Nc3cc(CN4CCCC4)c(O)c(CN4CCCC4)c3)c2n1; system = mouse, blood; conditions = oral, 57 mg/kg, tolerability, mean; endpoint = monocytes; value = 4.64%
Compound = CO[C@H]1C[C@@H]2CC[C@@H](C)[C@@](O)(O2)C(=O)C(=O)N2CCCC[C@H]2C(=O)O[C@H]([C@H](C)C[C@@H]2CC[C@@H](OC(=O)NCCOCCOCCOCCOCCOCCOCCOCCOCCC(=O)N3CCc4cc(Cn5nc(-c6ccc7oc(N)nc7c6)c6c(N)ncnc65)ccc4C3)[C@H](OC)C2)C[C@@H](O)[C@H](C)/C=C(\C)[C@@H](O)[C@@H](OC)C(=O)[C@H](C)C[C@H](C)/C=C/C=C/C=C/1C; system = patients with advanced solid tumours; conditions = intravenous, 6 mg weekly, grade 3 or higher; endpoint = dyspnoea incidence; value = 0%
Compound = CN[C@H]1CC[C@@H](c2ccc(Cl)c(Cl)c2)c2ccccc21; system = CD-1 mouse, male, lung; conditions = intraperitoneal, 0.3 mg/kg; endpoint = elimination rate constant; value = 8.63e-05 s⁻¹
Compound = Cn1cncc1-c1c(F)cncc1NC(=O)c1c(N)nn2cc(F)cnc12; system = human patients; conditions = oral, 130 mg once daily; endpoint = grade ≥3 neutrophil decrease incidence; value = 22%
Compound = CCc1ccc(CC/C=C/c2ccc3c(c2)C(=O)CC3)cc1; system = Sprague-Dawley rat, male, serum; conditions = oral, 120 mg/kg/day, 14 days; endpoint = chloride; value = 104 mM
Compound = CC(C)=CC1C(C(=O)OC(C#N)c2cccc(Oc3ccccc3)c2)C1(C)C (centres unmarked); assay = measured: CYP3A4; system = human, age 5 years; endpoint = enzyme contribution to clearance; value = 0.8%
Compound = Cn1cc(-c2nc(N[C@@H]3CCCC[C@@H]3N)c(F)c3c2C(=O)NC3)cn1; assay = measured: Retinal haemorrhage; system = patients with relapsed or refractory AML; conditions = oral, dose not given, all doses; endpoint = hemorrhagic adverse events; value = 7%
Compound = COc1cc2c(Oc3ccc4[nH]c(C)cc4c3F)ccnc2cc1OCC1(N)CC1; system = paediatric recurrent refractory sarcoma; conditions = concentration not given, whole group; endpoint = grade 3 Neutropenia; value = 5.9%

For quick reference, copied from above:
Compound = c1ccc2c(c1)ccc1c3ccccc3ccc21; system = fresh water; conditions = 12 (unit not given), 20 °C, SSP sampler, 100 µm; endpoint = log K(PDMS-water); value = 4.73 ± 0.01
Compound = CC[C@H](C)[C@H](NC(=O)[C@H](Cc1ccccc1)NC(=O)[C@H](CCC(=O)O)NC(=O)[C@H](CCCNC(=N)N)NC(=O)[C@H](C)NC(=O)[C@H](C)NC(=O)[C@H](CCC(N)=O)NC(=O)[C@H](CCC(=O)O)NC(=O)[C@H](CCC(=O)O)NC(=O)[C@H](CC(C)C)NC(=O)[C@H](Cc1ccc(O)cc1)NC(=O)[C@H](CO)NC(=O)[C@H](CO)NC(=O)[C@@H](NC(=O)[C@H](CC(=O)O)NC(=O)[C@H](CO)NC(=O)[C@@H](NC(=O)[C@H](Cc1ccccc1)NC(=O)[C@@H](NC(=O)CNC(=O)[C@H](CCC(=O)O)NC(=O)[C@H](C)NC(=O)CCc1cnc[nH]1)[C@@H](C)O)[C@@H](C)O)C(C)C)C(=O)N[C@@H](C)C(=O)N[C@@H](Cc1c[nH]c2ccccc12)C(=O)N[C@@H](CC(C)C)C(=O)N[C@H](C(=O)N[C@@H](CCCNC(=N)N)C(=O)NCC(=O)N[C@@H](CCCNC(=N)N)C(=O)N[C@@H](CCCCNC(=O)COCCOCCNC(=O)COCCOCCNC(=O)CC[C@H](NC(=O)CCCCCCCCCCCCCCCCC(=O)O)C(=O)O)C(=O)NCC(=O)NCC(=O)N[C@@H](CO)C(=O)N[C@@H](CCSC)C(=O)N[C@H](C(=O)N[C@@H](CCCCNc1c(NCCCCCN(O)C(=O)CCC(=O)NCCCCCN(O)C(=O)CCC(=O)NCCCCCN(O)C(C)=O)c(=O)c1=O)C(=O)O)C(C)C)C(C)C [zirconium-89 labelled]; assay = ex vivo gamma counting; system = male Sprague-Dawley rats, kidney; conditions = intravenous, 1 nmol, 72 h, mean of 3 animals; endpoint = tissue uptake; value = 4.5 ± 0.4 %ID/g
Compound = COc1cccc(-c2n[nH]c(SCc3ccccn3)n2)c1OC; tested on = Salmonella typhimurium; assay = Ames test, plate incorporation; system = TA100; conditions = 0.063 mg/plate, without S9; endpoint = revertant colonies per plate; value = 101
